Experimental data of several laboratories.
Protocols differ between the studies behind these lines. “And” joins repeats or separate records; there may be more than shown. Numbers after ± are the reported error.
UniProt Q13164, sequence (whole entry, looked up): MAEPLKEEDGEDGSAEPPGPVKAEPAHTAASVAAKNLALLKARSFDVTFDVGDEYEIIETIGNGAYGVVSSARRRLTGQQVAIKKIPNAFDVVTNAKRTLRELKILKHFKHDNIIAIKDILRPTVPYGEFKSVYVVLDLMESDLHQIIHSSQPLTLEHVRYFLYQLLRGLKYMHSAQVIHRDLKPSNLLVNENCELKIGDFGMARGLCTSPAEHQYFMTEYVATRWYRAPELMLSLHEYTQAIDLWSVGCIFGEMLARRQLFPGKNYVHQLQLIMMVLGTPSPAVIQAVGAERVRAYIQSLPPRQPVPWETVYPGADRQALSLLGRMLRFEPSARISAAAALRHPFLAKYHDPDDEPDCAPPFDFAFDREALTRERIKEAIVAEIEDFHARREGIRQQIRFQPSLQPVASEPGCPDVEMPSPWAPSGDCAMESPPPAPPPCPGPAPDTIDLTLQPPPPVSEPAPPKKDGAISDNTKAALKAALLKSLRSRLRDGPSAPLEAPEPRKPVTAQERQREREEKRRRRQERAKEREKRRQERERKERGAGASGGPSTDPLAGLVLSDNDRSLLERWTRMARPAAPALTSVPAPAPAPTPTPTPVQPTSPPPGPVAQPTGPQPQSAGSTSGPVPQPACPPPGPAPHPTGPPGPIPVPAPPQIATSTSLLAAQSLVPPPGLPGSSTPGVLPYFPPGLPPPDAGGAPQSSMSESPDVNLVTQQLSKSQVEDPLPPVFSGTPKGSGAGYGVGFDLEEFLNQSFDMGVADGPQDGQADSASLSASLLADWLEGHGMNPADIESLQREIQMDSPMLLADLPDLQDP
UniProt P68400, sequence (whole entry, looked up): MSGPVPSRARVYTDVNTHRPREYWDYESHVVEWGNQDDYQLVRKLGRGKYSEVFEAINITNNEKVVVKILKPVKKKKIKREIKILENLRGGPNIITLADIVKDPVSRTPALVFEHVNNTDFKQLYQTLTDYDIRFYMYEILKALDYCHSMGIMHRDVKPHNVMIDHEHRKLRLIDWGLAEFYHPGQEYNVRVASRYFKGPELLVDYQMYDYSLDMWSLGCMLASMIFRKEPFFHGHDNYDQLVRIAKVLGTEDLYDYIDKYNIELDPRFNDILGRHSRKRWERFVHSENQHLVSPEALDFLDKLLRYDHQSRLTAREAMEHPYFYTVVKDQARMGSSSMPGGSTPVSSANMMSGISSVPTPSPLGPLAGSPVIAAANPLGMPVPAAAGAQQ

C[C@@H]1O[C@@H](O[C@@H]2[C@@H](O)[C@H](O)[C@@H](CO)O[C@H]2c2c(O)cc(O)c3c(=O)cc(-c4ccc(O)cc4)oc23)[C@H](O)[C@H](O)[C@H]1O  viability (Caco-2; CCK-8; 1.25 µM, 24 h): 106%
O=C1NC2(CC2)COc2ncc(F)cc2[C@H]2COCCN2c2ccn3ncc1c3n2  reticulocytes (Sprague-Dawley rat, male, blood; oral, 20 mg/kg/day, end of recovery, 4-week repeated-dose toxicity; baseline: red blood cells): 2.42 ± 0.44%
Cc1cc(-c2ccc3ccccc3c2)nnc1NCCN1CCN(C)CC1  recovery (Caco-2; Caco-2 permeability; basolateral to apical; 5 µM, 0.5 h): 77.7%
C#Cc1ccc(C[C@@H]2NC(=O)CSCCNC(=O)[C@H](C(C)(C)O)NC(=O)[C@H](CC(C)C)NC(=O)[C@H](CCC3CCCCC3)NC(=O)[C@H](CC(C)C)NC(=O)[C@H](C(C)C)NC(=O)[C@]3(C)CCCN3C(=O)[C@H](C(C)C)NC2=O)cc1  Papp A→B (LLC-PK1; Caco-2): 0.05 ×10⁻⁶ cm/s
CC(=O)NCC(=O)N[C@@H](Cc1ccccc1)C(=O)N[C@@H](Cc1ccccc1)C(=O)N[C@@H](Cc1ccc(O)cc1)C(=O)NCC(=O)N[C@@H](Cc1ccc(O)cc1)C(=O)NCC(=O)N[C@@H](CO)C(=O)N[C@@H](CO)C(=O)N[C@@H](CO)C(=O)N[C@@H](CCCNC(=N)N)C(=O)N[C@@H](CCCNC(=N)N)C(=O)N[C@@H](C)C(=O)N1CCC[C@H]1C(=O)N[C@@H](CCC(N)=O)C(=O)N[C@H](C(=O)O)[C@@H](C)O  cytotoxicity (mouse dermal papilla cells; CCK-8; 1 to 400 µM, 48 h): not toxic
CN(C)[C@H]1C[C@@]23CC[C@@]4(O2)C(=CC[C@]2(C)[C@@H](c5ccc6ccncc6c5)CC[C@H]24)C=C3[C@@H](O)[C@@H]1O  inhibition (Mitogen-activated protein kinase 7 (MAPK7, Homo sapiens, UniProt Q13164); ATP probe labelling, inhibitor, KiNativ profiling; 1 µM): 1.8%
CC[C@H](C)[C@H](NC(=O)[C@H](CO)NC(=O)[C@H](Cc1ccc(O)cc1)NC(=O)[C@H](Cc1ccc(O)cc1)NC(=O)[C@H](CC(N)=O)NC(=O)CNC(=O)[C@H](CO)NC(=O)[C@H](Cc1ccc(O)cc1)NC(=O)[C@H](CO)NC(=O)[C@H](CO)NC(=O)[C@H](CC(N)=O)NC(=O)COCCOCCNC(=O)CN1CCN(CC(=O)O)CCN(CC(=O)O)CCN(CC(=O)O)CC1)C(=O)N[C@@H](CC(C)C)C(N)=O [copper-64 labelled]  tissue uptake (dynamic PET; KPC mouse Ptf1a-CreER tdTomato, pancreas; intravenous, 4.6 MBq/mouse, 0.9 min, 84 d after tamoxifen): 13.3 %ID/mL
CC(=O)O[C@H]1OC[C@@H]2C=C([C@]3(C)CCCC(C)(C)C3)CC[C@H]12  viability decrease (primary human T lymphocytes; MTT; 1 µM, 48 h, 10% FBS): 15 to 25%
CNC(=O)C[C@H](Cc1ccc(F)cc1)NC(=O)[C@@H](Cc1ccc(Cl)cc1Cl)NC(=O)[C@H](N)Cc1ccccc1[N+](=O)[O-]  viability (Huh-7-ACE2; CellTiter-Glo; 0.0977 µM, 48 h, unit not given; baseline: DMSO): 0.9 and 0.944 and 0.927
C#Cc1ccc(C[C@@H]2NC(=O)CSCCNC(=O)[C@H](Cc3ccccc3)N(C)C(=O)[C@H](CC(C)C)NC(=O)[C@H](Cc3cccc4ccccc34)NC(=O)[C@H](CC(C)C)NC(=O)C(C)(C)NC(=O)[C@@H]3CCCN3C(=O)[C@H](C(C)C)NC2=O)cc1  Papp A→B (LLC-PK1; Caco-2): 0.07 ×10⁻⁶ cm/s
c1ccc(CCNC2CCCc3c2[nH]c2ccc(C4CCCCC4)cc32)cc1 (stereo not drawn)  non-viable cells (A549; 50 µM, 23 h): 79.4 ± 16.4%
CC(C)(C)C(=O)OCOP(=O)(OCOC(=O)C(C)(C)C)C1CCCN(O)C1=O (stereo not drawn)  log GI50 (RXF 393): -6.44 log M
N=C(N)NCCC[C@H](NC(=O)[C@H](CCCNC(=N)N)NC(=O)[C@H](CCCNC(=N)N)NC(=O)[C@H](CCC(N)=O)NC(=O)[C@H](CCCNC(=N)N)NC(=O)[C@H](CCCNC(=N)N)NC(=O)[C@H](CCCCN)NC(=O)[C@H](CCCCN)NC(=O)[C@H](CCCNC(=N)N)NC(=O)CNC(=O)[C@H](Cc1ccc(O)cc1)NC(=O)[C@H](Cc1ccccc1)NC(=O)[C@H](Cc1ccccc1)NC(=O)[C@H](Cc1ccccc1)NC(=O)Cc1ccc2ccccc2c1)C(=O)O  cellular internalization (RAW264.7; flow cytometry; FITC-labelled compound; baseline: control): decreased
CNC(=O)C[C@H](Cc1ccncc1)NC(=O)[C@@H](Cc1cccc(Br)c1)NC(=O)[C@@H](N)Cc1cccc(F)c1  viability (Huh-7-ACE2; CellTiter-Glo; 0.00305 µM, 48 h, unit not given; baseline: DMSO): 0.888 and 0.891 and 0.943
Fc1cccc(COc2ccc(Nc3ncnc4ccc(-c5cccc(CN6CCCCC6)c5)cc34)cc2Cl)c1  TC50 (NIH 3T3; PrestoBlue; 96 h): 4.4 µM
CC(C)[C@H]1NC(=O)C[C@H]2/C=C/CCSSC[C@@H](NC1=O)C(=O)N[C@H](Cc1cccc3ccccc13)C(=O)NCC(=O)O2  inhibition (Casein kinase II subunit alpha, with CK2 beta (CSNK2A1, Homo sapiens, UniProt P68400); 10 µM): -5.4%
CNC(=O)C[C@H](Cc1ccncc1)NC(=O)[C@@H](Cc1cccc(Br)c1)NC(=O)[C@@H](N)Cc1ccsc1  viability (Huh-7-ACE2; CellTiter-Glo; 0.0244 µM, 48 h, unit not given; baseline: DMSO): 1.07 and 1.01 and 0.997
COc1ccccc1-c1n[nH]c2nc(NC3CCN(C(=O)Cc4ccc(F)cc4F)CC3)ncc12  relative abundance (bead binding, competition bead pull-down, measured: LINJ.30.3230; Leishmania donovani extract; 10 µM; baseline: vehicle): 0.85

Some of these lines once more:
CC(=O)NCC(=O)N[C@@H](Cc1ccccc1)C(=O)N[C@@H](Cc1ccccc1)C(=O)N[C@@H](Cc1ccc(O)cc1)C(=O)NCC(=O)N[C@@H](Cc1ccc(O)cc1)C(=O)NCC(=O)N[C@@H](CO)C(=O)N[C@@H](CO)C(=O)N[C@@H](CO)C(=O)N[C@@H](CCCNC(=N)N)C(=O)N[C@@H](CCCNC(=N)N)C(=O)N[C@@H](C)C(=O)N1CCC[C@H]1C(=O)N[C@@H](CCC(N)=O)C(=O)N[C@H](C(=O)O)[C@@H](C)O  cytotoxicity (mouse dermal papilla cells; CCK-8; 1 to 400 µM, 48 h): not toxic
CN(C)[C@H]1C[C@@]23CC[C@@]4(O2)C(=CC[C@]2(C)[C@@H](c5ccc6ccncc6c5)CC[C@H]24)C=C3[C@@H](O)[C@@H]1O  inhibition (Mitogen-activated protein kinase 7 (MAPK7, Homo sapiens, UniProt Q13164); ATP probe labelling, inhibitor, KiNativ profiling; 1 µM): 1.8%
CC[C@H](C)[C@H](NC(=O)[C@H](CO)NC(=O)[C@H](Cc1ccc(O)cc1)NC(=O)[C@H](Cc1ccc(O)cc1)NC(=O)[C@H](CC(N)=O)NC(=O)CNC(=O)[C@H](CO)NC(=O)[C@H](Cc1ccc(O)cc1)NC(=O)[C@H](CO)NC(=O)[C@H](CO)NC(=O)[C@H](CC(N)=O)NC(=O)COCCOCCNC(=O)CN1CCN(CC(=O)O)CCN(CC(=O)O)CCN(CC(=O)O)CC1)C(=O)N[C@@H](CC(C)C)C(N)=O [copper-64 labelled]  tissue uptake (dynamic PET; KPC mouse Ptf1a-CreER tdTomato, pancreas; intravenous, 4.6 MBq/mouse, 0.9 min, 84 d after tamoxifen): 13.3 %ID/mL
